{"data": "Measured values collected from several papers", "organism": "Plasmodium falciparum", "note": "Protocols differ between the studies behind these lines. Numbers after ± are the reported error."}
{"SMILES": "Cc1ccc(NCC(=O)Nc2ccc(F)cc2)cc1S(=O)(=O)N1CCOCC1", "test": "parasite growth", "test system": "3D7", "conditions": "blood stage", "EC50": "420 nM"}
{"SMILES": "Cc1ccc(CNC(=O)[C@@H]2Cc3cccc(c3)Oc3cccc(c3)C[C@H](N)C(=O)N[C@@H](CCc3ccccc3)C(=O)N2)cc1", "test": "parasite growth", "conditions": "1 h pulse, ring stage", "EC50": "1870 nM"}
{"SMILES": "COC(=O)c1[nH]c(C(=O)OC)c2c1c1c3cc(Cl)ccc3[nH]c1c1[nH]c3ccc(Cl)cc3c12", "test": "parasite growth, SYBR Green", "test system": "3D7", "conditions": "72 h, blood stage", "EC50": "790 nM"}
{"SMILES": "CC(C)C1NC(=O)C(Cc2ccccc2)NC(=O)C(CCCCCC(=O)C2CO2)NC(=O)C2CCCCN2C1=O (centres unmarked)", "test": "parasite growth, SYBR Green I", "test system": "3D7, drug-sensitive", "conditions": "72 h", "EC50": "350 ± 70 nM"}
{"SMILES": "Cc1ccc(NCC(=O)N2CCNCC2)cc1S(=O)(=O)N1CCOCC1", "test": "parasite growth", "test system": "3D7", "conditions": "blood stage", "EC50": "> 50000 nM"}
{"SMILES": "O=C1C2=C(Nc3ccccc3SC2c2ccc(F)cc2)c2ccccc21 (racemic)", "test": "growth, [3H]hypoxanthine incorporation", "test system": "3D7", "EC50": "33 nM"}
{"SMILES": "O=c1cc[s+]([O-])c2ccc(F)cc12 (racemic)", "test": "parasite growth", "test system": "3D7", "conditions": "72 h, blood stage", "EC50": "107000 nM"}
{"SMILES": "Cc1ccc(CNC(=O)[C@H](CCc2ccccc2)NC(=O)[C@@H](N)CCc2ccccc2)cc1", "test": "parasite growth", "test system": "D10", "conditions": "72 h, blood stage", "EC50": "7760 nM"}
{"SMILES": "C#CC[C@@H](/C=C/S(C)(=O)=O)NC(=O)[C@H](COC)NC(=O)[C@H](CCc1ccccc1)NC(=O)CN1CCOCC1", "test": "flow cytometry YOYO-1", "test system": "W2 ring stage", "conditions": "72 h no washout", "EC50": "18 ± 5 nM"}
{"SMILES": "O=C1C2=C(Nc3ccccc3SC2c2ccc(O)c(O)c2)c2ccccc21 (racemic)", "test": "growth, [3H]hypoxanthine incorporation", "test system": "3D7", "EC50": "> 5000 nM"}
{"SMILES": "O=c1cc[s+]([O-])c2ccc(Cl)cc12 (single isomer, unassigned; (-))", "test": "parasite growth", "test system": "3D7", "conditions": "72 h, blood stage", "EC50": "230000 nM"}
{"SMILES": "COc1ccccc1C1Sc2ccccc2NC2=C1C(=O)c1ccccc12 (racemic)", "test": "growth, [3H]hypoxanthine incorporation", "test system": "3D7", "EC50": "> 5000 nM"}
{"SMILES": "Cc1ccc(NCC(=O)NC2CCCCC2)cc1S(=O)(=O)N1CCOCC1", "test": "parasite growth", "test system": "3D7", "conditions": "blood stage", "EC50": "2670 nM"}
{"SMILES": "O=C(c1ccc(-c2cc3nccc(-c4ccc5cnccc5c4)c3o2)cc1)N1CCNCC1", "test": "parasite growth", "test system": "3D7", "conditions": "blood stage", "EC50": "58 nM"}
{"SMILES": "CNC(=O)c1c(F)cccc1Nc1nc(Nc2cc3c(cc2OC)CCN3C(=O)CN(C)C)nc2[nH]ccc12", "test system": "C235", "EC50": "1580 nM"}
{"SMILES": "COC[C@H](NC(=O)[C@H](CCc1ccccc1)NC(=O)CN1CCOCC1)C(=O)N[C@H](/C=C/S(C)(=O)=O)CC(C)C", "test": "flow cytometry YOYO-1", "test system": "W2 ring stage", "conditions": "72 h no washout", "EC50": "22 ± 5 nM"}
{"SMILES": "Cc1ccc(CNC(=O)[C@H](CC(C)C)NC(=O)[C@H](CCc2ccccc2)NC(=O)c2cnc(C)cn2)cc1", "test": "parasite growth", "test system": "D10", "conditions": "72 h, blood stage", "EC50": "127 nM"}
{"SMILES": "COC(=O)c1[nH]c(C(=O)OC)c2c1-c1c[nH]c3ccc(Cl)c(c13)[C@@]21C=Nc2ccc(Cl)cc21", "test": "parasite growth, SYBR Green", "test system": "3D7", "conditions": "72 h, blood stage", "EC50": "3900 nM"}
{"SMILES": "CC1CCN(Cc2cc(/C=C/C(=O)c3ccc(F)cc3)ccc2O)CC1", "test": "parasite growth", "test system": "3D7", "conditions": "72 h, blood stage", "EC50": "5970 nM"}
{"SMILES": "COc1ccc(S(=O)(=O)NCc2c[nH]nc2-c2cccs2)cc1", "test": "oocyst intensity, standard membrane feeding", "test system": "NF54-HGL reporter, Anopheles stephensi", "EC50": "230 nM"}
{"SMILES": "CN1CCN(C(=O)c2ccc(-c3cc4nccc(-c5ccc6cnccc6c5)c4o3)cc2)CC1", "test": "parasite growth", "test system": "3D7", "conditions": "blood stage", "EC50": "22 nM"}
{"SMILES": "Cc1ccc(NCC(=O)Nc2nccs2)cc1S(=O)(=O)N1CCOCC1", "test": "parasite growth", "test system": "3D7", "conditions": "blood stage", "EC50": "> 50000 nM"}
{"SMILES": "COC[C@H](NC(=O)[C@H](CC1CCCCC1)NC(=O)CN1CCOCC1)C(=O)N[C@H](/C=C/S(C)(=O)=O)CC(C)C", "test": "flow cytometry YOYO-1", "test system": "W2 ring stage", "conditions": "72 h no washout", "EC50": "359 ± 42 nM"}
{"SMILES": "O=C(CNc1ccc(Cl)c(S(=O)(=O)N2CCOCC2)c1)Nc1ccc(F)c(Cl)c1", "test": "parasite growth", "test system": "3D7", "conditions": "blood stage", "EC50": "60 nM"}
{"SMILES": "Cc1cc(N2CC[C@@](C#N)(C3CC3)C2=O)cc(NC(=O)Cc2ccccc2)n1", "test": "asexual blood-stage growth, SYBR Green I", "test system": "3D7", "conditions": "48 h", "EC50": "48.7 nM"}
{"SMILES": "Cc1ccc(NCC(=O)Nc2cccc(Cl)c2)cc1S(=O)(=O)N1CCOCC1", "test": "parasite growth", "test system": "3D7", "conditions": "blood stage", "EC50": "190 nM"}
{"SMILES": "CC(C)=CCC/C(C)=C/Cc1c(CCC(=O)c2ccc(O)cc2O)ccc(O)c1O", "test": "parasite growth, PfLDH", "test system": "3D7 expressing yeast DHODH", "EC50": "11600 nM"}
{"SMILES": "Cc1ccc(NCC(=O)Nc2ccon2)cc1S(=O)(=O)N1CCOCC1", "test": "parasite growth", "test system": "3D7", "conditions": "blood stage", "EC50": "> 50000 nM"}
{"SMILES": "Cc1ccc(CNC(=O)[C@H](CCc2ccccc2)NC(=O)[C@H](CCc2ccccc2)NC(=O)[C@@H](N)Cc2ccncc2)cc1", "test": "parasite growth", "test system": "D10", "conditions": "72 h, blood stage", "EC50": "357 nM"}
{"SMILES": "O=c1cc[s+]([O-])c2ccccc12 (single isomer, unassigned; (+))", "test": "parasite growth", "test system": "3D7", "conditions": "72 h, blood stage", "EC50": "115000 nM"}
{"SMILES": "Cc1ccc(NCC(=O)N2CCCCC2)cc1S(=O)(=O)N1CCOCC1", "test": "parasite growth", "test system": "3D7", "conditions": "blood stage", "EC50": "> 50000 nM"}
{"SMILES": "Cc1cc(N2CCC(CO)(C3CC3)C2=O)cc(C(=O)NCc2cc(F)cc(-c3cnn(C)c3)c2)n1 (centres unmarked)", "test": "asexual blood-stage growth, SYBR Green I", "test system": "3D7", "conditions": "48 h", "EC50": "356 nM"}
{"note": "A few entries again:"}
{"SMILES": "Cc1ccc(NCC(=O)N2CCNCC2)cc1S(=O)(=O)N1CCOCC1", "test": "parasite growth", "test system": "3D7", "conditions": "blood stage", "EC50": "> 50000 nM"}
{"SMILES": "Cc1ccc(NCC(=O)Nc2ccon2)cc1S(=O)(=O)N1CCOCC1", "test": "parasite growth", "test system": "3D7", "conditions": "blood stage", "EC50": "> 50000 nM"}
